Experimental data from different studies.
Each line is one published result; not all experiments were run side by side. ± marks the error that the study gave.

For `CC[C@H](C)[C@H](NC(=O)[C@H](CCCNC(=N)N)NC(=O)[C@H](CCCNC(=N)N)NC(=O)[C@H](CC(C)C)NC(=O)[C@H](Cc1c[nH]c2ccccc12)NC(=O)[C@H](C)NC(=O)[C@H](CCCCN)NC(=O)[C@@H](NC(=O)[C@H](CCCNC(=N)N)NC(=O)[C@H](CCCNC(=N)N)NC(=O)[C@H](CC(C)C)NC(=O)[C@@H](N)Cc1c[nH]c2ccccc12)[C@@H](C)CC)C(=O)N[C@@H](CCCCN)C(=O)N[C@@H](C)C(=O)N[C@@H](CC(C)C)C(=O)N[C@@H](CC(N)=O)C(=O)N[C@@H](CCCNC(=N)N)C(=O)N[C@@H](CCC(N)=O)C(=O)N[C@@H](CC(C)C)C(=O)NCC(=O)N[C@H](C(=O)N[C@@H](C)C(=O)N[C@@H](C)C(N)=O)C(C)C`, “maximum non-lethal concentration” read < 40 µM (human pleural mesothelial cells (CRL-9444); LIVE/DEAD calcein-AM/EthD-1; 24 h, 37 °C; relative to: untreated).
For `CC(O)[C@@]12SS[C@]3(C(=O)N1C)[C@@H](O)[C@]1([C@@]45c6ccccc6N[C@@H]4N4C(=O)[C@]6(C)SS[C@]4(C(=O)N6C)[C@H]5O)c4ccccc4N[C@@H]1N3C2=O` (stereo partly shown), the IC50 was 580 nM (MCF7; cell growth or viability, SRB).
For `CC(C)OC(=O)[C@H](C)NP(=O)(OCCOCn1cnc2c(=O)[nH]c(N)nc21)Oc1cccc2ccccc12` (stereo partly shown), “minimal cytotoxic concentration” read > 50 µM (HEL; altered cell morphology).
`CCCCOc1cc(C(=O)NCCN(CC)CC)c2ccccc2n1` — result for sodium current: “inhibited” (rat DRG neurons; ion current, inhibitor; 20 and 50 µM, overnight, with: veratridine 30 µM).
`COC(=O)[C@H](C)NP(=O)(OCCOCn1cnc2c(=O)[nH]c(N)nc21)Oc1cccc2ccccc12` (stereo partly shown): “minimal cytotoxic concentration” > 50 µM (HEL; altered cell morphology).
`H-HGLASTLTRWAHYNALIRAFGGG-NH2 (C-amide)` gave an internalized peptide of ~30% (SH-SY5Y; fluorimetry; 1 µM, 2 h, serum-free).
`CCN(CC)N=O` has a relative survival of 84.1% (HepaRG, 3D spheroids; flow cytometry micronucleus; highest tested concentration, 24 h, plus 6 days hEGF; relative to: vehicle).
`CN1C(=O)[C@@]23C[C@]4([C@@]56c7ccccc7N[C@@H]5N5C(=O)[C@]7(C)SS[C@]5(C(=O)N7C)[C@H]6O)c5ccccc5N[C@@H]4N2C(=O)[C@]1(C)SS3` gave an IC50 of 10 nM (NCI-H460; cell growth or viability, SRB).
`CN[C@@](C)(C[18F])C(=O)O` gave a tracer uptake of 2.6 %ID/g (DU-145 tumour model; host not given, heart; 1 h, tumour-bearing).
`CN(C)N=O` has an ATP level of 85.6% (HepaRG 2D; cell viability; concentration not given, 24 h; relative to: vehicle).
Under “minimum cytotoxic concentration”, `CC(C)C[C@H](NCc1ccc(-c2ccccc2)cc1)C(=O)N[C@@H](Cc1c[nH]c2ccccc12)C(=O)NC(C)(C)C` is recorded as 20 µM (Vero; cell morphology, microscopy; 5 (unit not given)).
`NC(=O)NO` has a TD50 of 28000 ± 1010 µM (ARPE-19, uninfected; cytotoxicity, CellTiter-Glo; 14 d).
The IndC50 of `Cn1c(COP(=O)(NCCBr)NCCBr)cnc1[N+](=O)[O-]` is reported as 2.5 µM (cryopreserved human hepatocytes; RT-PCR, item: CYP3A4 mRNA; no induction at 1 µM, lower limit).
For `CC[C@H](C)[C@H](NP(=O)(OCCOCn1cnc2c(=O)[nH]c(N)nc21)Oc1ccccc1)C(=O)OCc1ccccc1` (stereo partly shown), “minimal cytotoxic concentration” read > 100 µM (HEL; altered cell morphology).
For `CCN(N=O)C(C)C`, “γH2AX fold increase” read 1.5 to 1.8 fold (HepaRG, 3D spheroids; concentration not given, 24 h, highest tested concentration, hEGF 5 days; relative to: vehicle).
For `C#CCCC[C@H]1OC(=O)[C@H](C(C)C)N(C)C(=O)[C@@H]2CCCN2C(=O)[C@H]([C@@H](C)CC)OC(=O)[C@H]([C@@H](C)CC)N(C)C(=O)[C@H]([C@@H](C)CC)NC(=O)[C@H]1C`, the LC50 was > 30000 nM (HEK293; resazurin reduction; 24 h).
`CC(C)C[C@H](NCc1ccc(-c2ccccc2)cc1)C(=O)N[C@@H](Cc1c[nH]c2ccccc12)C(=O)NCc1ccccc1` — result for “minimum cytotoxic concentration”: ≥ 20 µM (Vero; cell morphology, microscopy; 5 (unit not given)).
`CC(C)Nc1nc(Cl)nc(NC(C)C)n1` has an LD50 of 2.51 µg/mL (HEK293; neutral red uptake; 24 h).
For `C=C(C[C@H](N)C(=O)O)C(=O)NCc1ccccc1`, “concentration increasing cytotoxicity” read 10 µM (MCF7; 24 h; relative to: vehicle).
`CN1c2ccc(-c3ccc(C#N)cc3)cc2[C@H]2[C@H](CCN2C(=O)c2cccc(F)c2)[C@@H]1CO` gave a CC50 of 22000 nM (HEp-2, uninfected).
`COC(=O)[C@H](C)NP(=O)(OCCOCn1cnc2c(=O)[nH]c(N)nc21)Oc1ccccc1` (stereo partly shown) — result for “minimal cytotoxic concentration”: > 100 µM (HEL; altered cell morphology).
With `O=C1Nc2ccccc2/C1=N/N=C/c1cccc([N+](=O)[O-])c1` the cytotoxic concentration was > 200 µg/mL (HUVEC; MTT; 24 and 48 h, 50% cell death).
`CN1C(=O)[C@]23SS[C@@]1(C)C(=O)N2[C@H]1Nc2ccccc2[C@@]1([C@@]12c4ccccc4N[C@@H]1N1C(=O)[C@@]4(C)SS[C@]1(C(=O)N4C)[C@H]2O)[C@@H]3O` has an IC50 of 200 nM (NCI-H460; cell growth or viability, SRB).
`C=C(C[C@H](N)C(=O)O)C(=O)NCc1ccc(F)cc1` — result for “concentration increasing cytotoxicity”: 32 µM (MCF7; 24 h; relative to: vehicle).
For `CN(N=O)c1ccccc1`, the ATP level was 74.8% (HepaRG 2D; cell viability; concentration not given, 24 h; relative to: vehicle).
`CC[C@H](C)[C@H](NC(=O)[C@H](CC(=O)O)NC(=O)[C@H](Cc1ccccc1)NC(=O)[C@H](CC(C)C)NC(=O)CN)C(=O)N[C@H](C(=O)N[C@@H](CCCCN)C(=O)N[C@@H](CCCCN)C(=O)N[C@H](C(=O)N[C@H](C(=O)NCC(=O)N[C@@H](C)C(=O)N[C@@H](CC(C)C)C(=O)NCC(N)=O)C(C)C)C(C)C)C(C)C` — result for “minimal hemolytic concentration”: 16 µM (human erythrocytes; 1 h, 37 °C, hemolysis ≤5%).
`C[C@H](N)C(=O)N[C@@H](C)C(=O)N[C@@H](CCCCN)C(=O)N[C@@H](CCCCN)C(=O)N[C@@H](C)C(=O)N[C@@H](C)C(=O)N[C@@H](C)C(=O)N[C@@H](CCCCN)C(=O)N[C@@H](CCCCN)C(=O)N[C@@H](C)C(=O)N[C@@H](C)C(=O)N[C@@H](C)C(=O)N[C@@H](CCCCN)C(=O)N[C@@H](CCCCN)C(=O)N[C@@H](C)C(=O)N[C@@H](C)C(=O)N[C@@H](C)C(=O)N[C@@H](CCCCN)C(=O)N[C@@H](CCCCN)C(=O)N[C@@H](C)C(N)=O`: “inhibition of cellular uptake” 49% (L929; FACS; concentration not given, with: hypertonic sucrose).
`CC[C@@]12SS[C@]3(C(=O)N1C)[C@@H](O)[C@]1(C45c6ccccc6N[C@@H]4N4C(=O)[C@@]6(CC)SS[C@@]4(C(=O)N6C)[C@H]5O)c4ccccc4N[C@@H]1N3C2=O` (stereo partly shown) gave an IC50 of 490 nM (MCF7; cell growth or viability, SRB).
For `RRRRRRRR`, “maximum non-toxic concentration” read 0.025 mg/mL (HEI-OC1; MTT; peptide; 24 h, rhodamine-conjugated peptide).
`CC[C@H](C)[C@H](NC(=O)[C@H](CC(=O)O)NC(=O)[C@H](Cc1ccccc1)NC(=O)[C@H](CC(C)C)NC(=O)CN)C(=O)N[C@H](C(=O)N[C@@H](CCCCN)C(=O)N[C@@H](CCCCN)C(=O)N[C@H](C(=O)N[C@H](C(=O)NCC(=O)N[C@@H](CC(C)C)C(=O)N[C@@H](CC(C)C)C(=O)N[C@@H](CCCCN)C(N)=O)C(C)C)C(C)C)C(C)C` — result for “minimal hemolytic concentration”: 32 µM (human erythrocytes; 1 h, 37 °C, hemolysis ≤5%).
`Cc1cc2ncccc2c2nc(N)n(C)c12` — result for “lowest toxic concentration”: 200 nM (rat primary midbrain neurons; dopaminergic neuron loss, item: TH+ over MAP2+ neurons; 24 h).
`CC(C)C[C@H](NC(=O)[C@H](C)NC(=O)CNC(=O)[C@H](CC(C)C)NC(=O)[C@H](CC(C)C)NC(=O)[C@H](CCCCN)NC(=O)[C@H](CCCCN)NC(=O)[C@H](CC(C)C)NC(=O)[C@H](CC(C)C)NC(=O)[C@H](CCCCN)NC(=O)[C@H](CC(C)C)NC(=O)[C@H](CC(C)C)NC(=O)[C@@H](N)CCCCN)C(=O)NCC(N)=O` — result for “minimal hemolytic concentration”: 8 µM (human erythrocytes; 1 h, 37 °C, hemolysis ≤5%).
With `CN(CCCC(=O)O)N=O` the ATP level was 77% (HepaRG 2D; cell viability; concentration not given, 24 h; relative to: vehicle).
The hemolysis of `CC[C@H](C)[C@H](NC(=O)[C@H](CCCCN)NC(=O)[C@H](Cc1c[nH]c2ccccc12)NC(=O)[C@H](Cc1c[nH]c2ccccc12)NC(=O)[C@H](CCCCN)NC(=O)[C@H](CCCCN)NC(=O)[C@H](CCCCN)NC(=O)[C@H](Cc1c[nH]c2ccccc12)NC(=O)[C@H](CCCCN)NC(=O)[C@H](CCCCN)NC(=O)[C@H](Cc1c[nH]c2ccccc12)NC(=O)[C@H](CCCCN)NC(=O)[C@H](CCCCN)NC(=O)[C@@H](NC(=O)[C@@H](NC(=O)[C@H](CCCCN)NC(=O)[C@@H](N)CCCNC(=N)N)[C@@H](C)CC)[C@@H](C)CC)C(=O)N[C@@H](Cc1c[nH]c2ccccc12)C(=O)N[C@@H](Cc1c[nH]c2ccccc12)C(=O)N[C@@H](CCCCN)C(=O)NCCOCCOCC(N)=O` is reported as < 10% (mouse erythrocytes; 128 µM, 1 h, pH 7.4, 37 °C).
`Nc1nc2c(ncn2COCCO)c(=O)[nH]1` — result for “minimal cytotoxic concentration”: > 100 µM (HEL; altered cell morphology).
`O=NN1CCN(C2CCCC2)CC1` gave an ATP level of 70.8% (HepaRG 2D; cell viability; concentration not given, 24 h; relative to: vehicle).
`CC[C@H](C)[C@H](NC(=O)CN)C(=O)NCC(=O)N[C@@H](C)C(=O)N[C@H](C(=O)N[C@@H](CC(C)C)C(=O)N[C@@H](CCCCN)C(=O)N[C@H](C(=O)N[C@@H](CC(C)C)C(=O)N[C@H](C(=O)N[C@H](C(=O)NCC(=O)N[C@@H](CC(C)C)C(=O)N1CCC[C@H]1C(=O)N[C@@H](C)C(=O)N[C@@H](CC(C)C)C(=O)N[C@H](C(=O)N[C@@H](CO)C(=O)N[C@@H](Cc1c[nH]c2ccccc12)C(=O)N[C@H](C(=O)N[C@@H](CCCCN)C(=O)N[C@@H](CCCNC(=N)N)C(=O)N[C@@H](CCCCN)C(=O)N[C@@H](CCCNC(=N)N)C(=O)N[C@@H](CCC(N)=O)C(=O)N[C@@H](CCC(N)=O)C(N)=O)[C@@H](C)CC)[C@@H](C)CC)[C@@H](C)O)[C@@H](C)O)C(C)C)C(C)C`: hemolysis “inhibited” (rat erythrocytes; concentration not given, 30 min, pH 7.4, 37 °C, with: Escherichia coli K-235 LPS, 1:5 w/w).

For quick reference, copied from above:
With `O=C1Nc2ccccc2/C1=N/N=C/c1cccc([N+](=O)[O-])c1` the cytotoxic concentration was > 200 µg/mL (HUVEC; MTT; 24 and 48 h, 50% cell death).
`NC(=O)NO` has a TD50 of 28000 ± 1010 µM (ARPE-19, uninfected; cytotoxicity, CellTiter-Glo; 14 d).
For `CN(N=O)c1ccccc1`, the ATP level was 74.8% (HepaRG 2D; cell viability; concentration not given, 24 h; relative to: vehicle).
`CN[C@@](C)(C[18F])C(=O)O` gave a tracer uptake of 2.6 %ID/g (DU-145 tumour model; host not given, heart; 1 h, tumour-bearing).
For `CCN(N=O)C(C)C`, “γH2AX fold increase” read 1.5 to 1.8 fold (HepaRG, 3D spheroids; concentration not given, 24 h, highest tested concentration, hEGF 5 days; relative to: vehicle).
